# Experimental data pooled from the literature.
# Compare with care: the assays were run in different laboratories. Several values in a cell are separate wells, animals, samples, runs or records. Numbers after ± are the reported error. Non-standard residues stand in square brackets, D forms with d. Primed or numbered codes have the meaning given here. Where no end group is shown, it is not given here. No end group written: not given here. [ ]: non-standard residue; d: D form. * marks the point of attachment.
# MMP1: MMP1 100-269 (Homo sapiens, UniProt P03956)
# Sequence of UniProt P03956 (whole entry, looked up): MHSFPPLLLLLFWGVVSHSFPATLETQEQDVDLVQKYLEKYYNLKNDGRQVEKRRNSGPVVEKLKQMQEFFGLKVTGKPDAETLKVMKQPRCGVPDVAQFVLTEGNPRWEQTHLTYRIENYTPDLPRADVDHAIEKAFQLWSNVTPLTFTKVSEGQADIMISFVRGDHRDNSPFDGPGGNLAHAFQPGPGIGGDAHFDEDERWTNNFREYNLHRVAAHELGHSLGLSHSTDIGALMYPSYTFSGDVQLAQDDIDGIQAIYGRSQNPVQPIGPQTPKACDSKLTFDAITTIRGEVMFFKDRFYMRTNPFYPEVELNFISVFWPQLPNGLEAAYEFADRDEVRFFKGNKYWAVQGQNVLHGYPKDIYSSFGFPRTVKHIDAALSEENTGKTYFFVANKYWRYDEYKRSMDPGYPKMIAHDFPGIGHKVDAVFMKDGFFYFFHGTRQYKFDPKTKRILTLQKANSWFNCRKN
# S100A9: Protein S100-A9 (S100A9, Homo sapiens, UniProt P06702)
# Sequence of UniProt P06702 (whole entry, looked up): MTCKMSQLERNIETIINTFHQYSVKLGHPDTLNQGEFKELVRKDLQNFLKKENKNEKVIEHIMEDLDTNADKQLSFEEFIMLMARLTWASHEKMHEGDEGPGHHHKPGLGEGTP
# B1: enzyme (Bacillus pumilus, UniProt A8FFI9); chain EARSIAWSVDEFFKNREGTFVIQEVKEKSPWVYNKKRAKERFAPQSTFKVANALIGLQTGAVRDEYDIKYWDGVKREIDNWNRDHTLGSGMRDSVVWYYQAMARDIGEERMNHWVKAIHYGNKDISGGIDQFWLSSTLRISPIEQVRFLKQLYEETLPFDLKNMRTVKRMMVQEEEKHATLYGKTGSGSDIGWYVGFIKHEHKTYILATNIKGTGIEAKDITYRILKKYHLMEASV
# B2: MAP7D3 426-876 (Homo sapiens, UniProt Q8IWC1); chain PKESVKGSPKESMEASPEAMVKASPKTSLEASMEASPKAKARDAPKKSEMDKQALIPIAKKRLSSYTECYKWSSSPENACGLPSPISTNRQIQKNCPPSPLPLISKQSPQTSFPYKIMPIQHTLSVQSASSTVKKKKETVSKTTNRCEALSQRHMIYEESGNKSTAGIMNAEAATKILTELRRLAREQREKEEEERQREEMQQRVIKKSKDMAKEAVGGQAEDHLKLKDGQQQNETKKKKGWLDQEDQEAPLQKGDAKIKAQEEADKRKKEHERIMLQNLQERLERKKRIEEIMKRTRKTDVNASKVTETSSHDIYEEAEADNEESDKDSLNEMFPSAILNGTGSPTKFKMPFNNAKKMTHKLVFLEDGTSQVRKEPKTYFNGDLKNFRQKSMKDTSIQEVVSRPSSKRMTSHTTKTRKADETNTTSRSSAQTKSEGFHDILPKSSDTFRQ
# B3: CKS1 (Saccharomyces cerevisiae, UniProt P20486); sequence looked up; chain MYHHYHAFQGRKLTDQERARVLEFQDSIHYSPRYSDDNYEYRHVMLPKAMLKVIPSDYFNSEVGTLRILTEDEWRGLGITQSLGWEHYECHAPEPHILLFKRPLNYEAELRAATAAAQQQQQQQQQQQQQQQQHQTQSISNDMQVPPQIS
# B4: UGT1A9 (Homo sapiens, UniProt O60656); chain GKLLVVPMDGSHWFTMRSVVEKLILRGHEVVVVMPEVSWQLGRSLNCTVKTYSTSYTLEDLDREFKAFAHAQWKAQVRSIYSLLMGSYNDIFDLFFSNCRSLFKDKKLVEYLKESSFDAVFLDPFDNCGLIVAKYFSLPSVVFARGILCHYLEEGAQCPAPLSYVPRILLGFSDAMTFKERVRNHIMHLEEHLLCHRFFKNALEIASEILQTPVTEYDLYSHTSIWLLRTDFVLDYPKPVMPNMIFIGGINCHQGKPLPMEFEAYINASGEHGIVVFSLGSMVSEIPEKKAMAIADALGKIPQTVLWRYTGTRPSNLANNTILVKWLPQNDLLGHPMTRAFITHAGSHGVYESICNGVPMVMMPLFGDQMDNAKRMETKGAGVTLNVLEMTSEDLENALKAVINDKSYKENIMRLSSLHKDRPVEPLDLAVFWVEFVMRHKGAPHLRPAAHDLTWYQYHSLDVIGFLLAVVLTVAFITFKCCAYGYRKCLGKKGRVKKAHKSKTH
# B5: SFN 1-231 (Homo sapiens, UniProt P31947); chain MERASLIQKAKLAEQAERYEDMAAFMKGAVEKGEELSCEERNLLSVAYKNVVGGQRAAWRVLSSIEQKSNEEGSEEKGPEVREYREKVETELQGVCDTVLGLLDSHLIKEAGDAESRVFYLKMKGDYYRYLAEVATGDDKKRIIDSARSAYQEAMDISKKEMPPTNPIRLGLALNFSVFHYEIANSPEEAISLAKTTFDEAMADLHTLSEDSYKDSTLIMQLLRDNLTLWT
# B6: PDHA1/PDHB mature heterotetramer (Homo sapiens); chain 1 FANDATFEIKKCDLHRLEEGPPVTTVLTREDGLKYYRMMQTVRRMELKADQLYKQKIIRGFCHLCDGQEACCVGLEAGINPTDHLITAYRAHGFTFTRGLSVREILAELTGRKGGCAKGKGGSMHMYAKNFYGGNGIVGAQVPLGAGIALACKYNGKDEVCLTLYGDGAANQGQIFEAYNMAALWKLPCIFICENNRYGMGTSVERAAASTDYYKRGDFIPGLRVDGMDILCVREATRFAAAYCRSGKGPILMELQTYRYHGHSMSDPGVSYRTREEIQEVRSKSDPIMLLKDRMVNSNLASVEELKEIDVEVRKEIEDAAQFATADPEPPLEELGYHIYSSDPPFEVRGANQWIKFKSVS; chain 2 LQVTVRDAINQGMDEELERDEKVFLLGEEVAQYDGAYKVSRGLWKKYGDKRIIDTPISEMGFAGIAVGAAMAGLRPICEFMTFNFSMQAIDQVINSAAKTYYMSGGLQPVPIVFRGPNGASAGVAAQHSQCFAAWYGHCPGLKVVSPWNSEDAKGLIKSAIRDNNPVVVLENELMYGVPFEFPPEAQSKDFLIPIGKAKIERQGTHITVVSHSRPVGHCLEAAAVLSKEGVECEVINMRTIRPMDMETIEASVMKTNHLVTVEGGWPQFGVGAEICARIMEGPAFNFLDAPAVRVTGADVPMPYAKILEDNSIPQVKDIIFAIKKTLNI
# B7: TIF4631 572-853 K590R (Saccharomyces cerevisiae, UniProt P39935); sequence looked up; chain LVPSANRWVPKFKSKKTERKLAPDGKTELLDKDEVERKMKSLLNKLTLEMFDAISSEILAIANISVWETNGETLKAVIEQIFLKACDEPHWSSMYAQLCGKVVKELNPDITDETNEGKTGPKLVLHYLVARCHAEFDKGWTDKLPTNEDGTPLEPEMMSEEYYAAASAKRRGLGLVRFIGFLYRLNLLTGKMMFECFRRLMKDLTDSPSEETLESVVELLNTVGEQFETDSFRTGQATLEGSQLLDSLFGILDNIIQTAKISSRIKFKLIDIKELRHDKNWN
# B8: TIMP3 24-144 (Homo sapiens, UniProt P35625); sequence looked up; chain CTCSPSHPQDAFCNSDIVIRAKVVGKKLVKEGPFGTLVYTIKQMKMYRGFTKMPHVQYIHTEASESLCGLKLEVNKYQYLLTGRVYDGKMYTGLCNFVERWDQLTLSQRKGLNYRYHLGCN
# Sequence of UniProt Q96D31 (whole entry, looked up): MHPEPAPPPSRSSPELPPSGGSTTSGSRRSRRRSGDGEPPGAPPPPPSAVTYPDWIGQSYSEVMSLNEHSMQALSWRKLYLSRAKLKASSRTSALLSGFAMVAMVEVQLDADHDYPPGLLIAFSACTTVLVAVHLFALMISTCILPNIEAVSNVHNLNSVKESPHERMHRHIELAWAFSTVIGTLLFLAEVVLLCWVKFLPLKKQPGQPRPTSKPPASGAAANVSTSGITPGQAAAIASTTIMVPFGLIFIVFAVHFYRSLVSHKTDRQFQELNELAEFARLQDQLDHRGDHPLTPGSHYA
# Sequence of UniProt P02462 (whole entry, looked up): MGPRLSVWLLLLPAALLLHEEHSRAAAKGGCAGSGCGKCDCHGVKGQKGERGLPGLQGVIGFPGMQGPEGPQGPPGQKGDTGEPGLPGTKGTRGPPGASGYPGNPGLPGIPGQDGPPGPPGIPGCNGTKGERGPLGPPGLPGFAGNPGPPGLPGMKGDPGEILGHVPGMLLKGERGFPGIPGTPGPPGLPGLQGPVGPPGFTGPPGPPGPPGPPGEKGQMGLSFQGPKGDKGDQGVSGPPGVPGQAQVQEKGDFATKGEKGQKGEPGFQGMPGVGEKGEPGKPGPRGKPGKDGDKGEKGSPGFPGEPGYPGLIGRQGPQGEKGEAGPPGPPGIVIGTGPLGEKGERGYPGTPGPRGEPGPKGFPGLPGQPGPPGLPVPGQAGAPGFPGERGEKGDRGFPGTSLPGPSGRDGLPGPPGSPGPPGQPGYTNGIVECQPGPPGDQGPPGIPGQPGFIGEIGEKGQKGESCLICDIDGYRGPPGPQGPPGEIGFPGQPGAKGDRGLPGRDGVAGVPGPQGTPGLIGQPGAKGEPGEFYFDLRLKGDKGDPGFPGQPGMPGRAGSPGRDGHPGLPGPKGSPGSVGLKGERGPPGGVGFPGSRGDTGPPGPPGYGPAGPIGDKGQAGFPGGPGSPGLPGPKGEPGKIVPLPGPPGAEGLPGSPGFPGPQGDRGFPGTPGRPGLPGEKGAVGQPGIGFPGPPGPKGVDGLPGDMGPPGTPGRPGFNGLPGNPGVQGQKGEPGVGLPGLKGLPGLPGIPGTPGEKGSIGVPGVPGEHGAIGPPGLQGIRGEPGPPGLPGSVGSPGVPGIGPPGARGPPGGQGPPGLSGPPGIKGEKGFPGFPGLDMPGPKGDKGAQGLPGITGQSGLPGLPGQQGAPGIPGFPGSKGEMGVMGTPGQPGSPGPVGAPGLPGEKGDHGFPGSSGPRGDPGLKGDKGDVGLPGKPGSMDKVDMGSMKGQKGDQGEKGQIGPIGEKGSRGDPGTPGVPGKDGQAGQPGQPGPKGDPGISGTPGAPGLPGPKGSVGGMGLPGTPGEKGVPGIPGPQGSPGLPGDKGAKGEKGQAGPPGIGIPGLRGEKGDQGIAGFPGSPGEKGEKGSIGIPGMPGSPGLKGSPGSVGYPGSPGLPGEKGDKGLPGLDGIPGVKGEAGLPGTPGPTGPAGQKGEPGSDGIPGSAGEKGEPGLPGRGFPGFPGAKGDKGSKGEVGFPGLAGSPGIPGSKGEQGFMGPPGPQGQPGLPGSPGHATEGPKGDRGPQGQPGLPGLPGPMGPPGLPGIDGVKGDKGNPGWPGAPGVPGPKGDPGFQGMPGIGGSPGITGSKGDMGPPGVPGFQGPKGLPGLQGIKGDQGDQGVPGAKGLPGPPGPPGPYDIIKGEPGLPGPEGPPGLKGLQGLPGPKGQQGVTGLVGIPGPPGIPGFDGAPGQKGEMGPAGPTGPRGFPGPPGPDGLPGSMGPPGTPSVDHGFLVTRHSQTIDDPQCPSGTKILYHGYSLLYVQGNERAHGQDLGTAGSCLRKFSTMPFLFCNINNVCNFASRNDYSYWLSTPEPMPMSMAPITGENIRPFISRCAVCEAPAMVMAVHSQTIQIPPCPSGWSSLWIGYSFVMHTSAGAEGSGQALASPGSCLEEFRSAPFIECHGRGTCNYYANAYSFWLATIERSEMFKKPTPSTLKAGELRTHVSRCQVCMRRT
# Sequence of UniProt Q13586 (whole entry, looked up): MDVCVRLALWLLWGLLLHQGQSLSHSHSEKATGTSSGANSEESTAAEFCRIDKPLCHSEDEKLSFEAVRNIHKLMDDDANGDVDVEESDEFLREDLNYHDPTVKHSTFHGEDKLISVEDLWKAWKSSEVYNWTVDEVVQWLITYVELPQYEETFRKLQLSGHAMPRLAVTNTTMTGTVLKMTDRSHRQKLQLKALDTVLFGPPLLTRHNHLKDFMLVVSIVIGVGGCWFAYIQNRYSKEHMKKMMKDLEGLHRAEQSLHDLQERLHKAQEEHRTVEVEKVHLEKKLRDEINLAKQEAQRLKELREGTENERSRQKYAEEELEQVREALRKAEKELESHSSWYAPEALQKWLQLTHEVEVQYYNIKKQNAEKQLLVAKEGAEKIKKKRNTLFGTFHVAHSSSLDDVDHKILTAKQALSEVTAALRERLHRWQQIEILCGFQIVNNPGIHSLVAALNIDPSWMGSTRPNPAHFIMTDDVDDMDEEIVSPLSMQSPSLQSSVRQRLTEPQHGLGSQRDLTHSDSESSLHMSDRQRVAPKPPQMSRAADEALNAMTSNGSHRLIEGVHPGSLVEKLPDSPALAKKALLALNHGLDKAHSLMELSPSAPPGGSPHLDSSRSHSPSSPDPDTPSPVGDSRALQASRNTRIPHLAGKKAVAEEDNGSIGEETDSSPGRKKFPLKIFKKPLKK
# Sequence of UniProt O60934 (whole entry, looked up): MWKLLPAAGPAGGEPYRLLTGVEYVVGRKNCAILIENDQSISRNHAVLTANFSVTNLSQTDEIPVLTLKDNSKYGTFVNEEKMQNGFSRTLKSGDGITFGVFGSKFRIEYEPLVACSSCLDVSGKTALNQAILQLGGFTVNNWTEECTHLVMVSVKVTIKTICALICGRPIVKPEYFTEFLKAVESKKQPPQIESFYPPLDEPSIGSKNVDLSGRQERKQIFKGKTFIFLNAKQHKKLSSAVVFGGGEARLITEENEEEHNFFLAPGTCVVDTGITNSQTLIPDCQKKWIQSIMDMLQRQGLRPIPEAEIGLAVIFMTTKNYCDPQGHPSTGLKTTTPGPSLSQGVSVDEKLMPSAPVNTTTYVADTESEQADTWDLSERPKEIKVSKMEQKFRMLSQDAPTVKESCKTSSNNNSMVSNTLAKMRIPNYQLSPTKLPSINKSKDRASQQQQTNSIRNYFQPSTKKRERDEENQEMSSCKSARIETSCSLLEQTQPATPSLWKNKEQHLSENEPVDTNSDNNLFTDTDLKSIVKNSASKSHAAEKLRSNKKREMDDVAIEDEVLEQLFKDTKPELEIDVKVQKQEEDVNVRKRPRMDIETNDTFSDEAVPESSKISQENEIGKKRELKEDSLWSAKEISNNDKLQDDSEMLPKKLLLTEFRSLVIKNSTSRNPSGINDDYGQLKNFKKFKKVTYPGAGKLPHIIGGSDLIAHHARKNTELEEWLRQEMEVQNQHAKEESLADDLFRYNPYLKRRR
# Sequence of UniProt P00004 (whole entry, looked up): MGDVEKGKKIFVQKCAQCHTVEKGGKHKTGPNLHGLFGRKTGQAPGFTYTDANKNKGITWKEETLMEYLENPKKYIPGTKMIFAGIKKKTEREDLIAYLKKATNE
# Sequence of UniProt P06400 (whole entry, unmodified, looked up): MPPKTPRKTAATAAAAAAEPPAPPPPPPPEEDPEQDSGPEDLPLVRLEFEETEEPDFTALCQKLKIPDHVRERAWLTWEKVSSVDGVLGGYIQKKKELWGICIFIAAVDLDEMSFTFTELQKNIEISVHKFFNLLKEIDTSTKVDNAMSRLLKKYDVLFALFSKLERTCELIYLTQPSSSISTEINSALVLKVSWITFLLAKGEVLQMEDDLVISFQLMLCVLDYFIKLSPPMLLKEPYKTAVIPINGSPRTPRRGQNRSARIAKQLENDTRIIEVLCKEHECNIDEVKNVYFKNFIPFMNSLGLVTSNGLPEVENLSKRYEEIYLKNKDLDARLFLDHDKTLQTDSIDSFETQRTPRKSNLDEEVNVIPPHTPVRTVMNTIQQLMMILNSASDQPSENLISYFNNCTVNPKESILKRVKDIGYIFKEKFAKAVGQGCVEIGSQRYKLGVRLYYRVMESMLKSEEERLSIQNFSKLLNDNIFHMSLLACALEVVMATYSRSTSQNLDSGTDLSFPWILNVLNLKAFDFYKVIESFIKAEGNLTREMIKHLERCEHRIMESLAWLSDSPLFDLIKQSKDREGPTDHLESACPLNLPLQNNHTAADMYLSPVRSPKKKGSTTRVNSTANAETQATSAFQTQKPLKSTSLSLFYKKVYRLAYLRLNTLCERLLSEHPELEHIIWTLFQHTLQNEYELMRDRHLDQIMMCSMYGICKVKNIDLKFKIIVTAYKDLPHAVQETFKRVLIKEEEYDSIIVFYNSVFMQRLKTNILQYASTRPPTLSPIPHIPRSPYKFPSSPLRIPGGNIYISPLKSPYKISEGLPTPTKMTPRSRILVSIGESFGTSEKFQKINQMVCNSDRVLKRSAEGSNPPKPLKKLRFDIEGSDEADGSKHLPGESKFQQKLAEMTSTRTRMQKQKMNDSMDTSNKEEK
Substance,target or system,test,test system,setting,scale,quantity,result
MWSRSDHNLNKFWILHYSANPS (peptide),CD274 extracellular domain (Homo sapiens),BLI,peptide,,,koff,0.00264 s⁻¹
"CALM1 T26C, Alexa Fluor 568 at C26 (sequence not shown)",Camk2d T287A (Rattus norvegicus),FRET,,500 nM,,donor fluorescence lifetime,2.32 ns
"ACTC1 (Homo sapiens, UniProt P68032)",heavy meromyosin HMM (Oryctolagus cuniculus),"myosin ATPase activity, steady-state kinetics",,together with: ATP 2 mM,,Vmax,10.2 µM/s
"ITGB1 whole (Gallus gallus, UniProt P07228)","laminin (Mus musculus, UniProt P19137)",neuron attachment,E8 CG neurons,together with: JG22 50 µg/mL,"reference: poly-D-lysine, higher = more attachment",attachment,4%
B1 (enzyme),C[C@@H](O)[C@H]1C(=O)N2C(C(=O)O)=C(SCCN=CN)C[C@H]12,steady-state kinetics,,pH 7,,kcat/Km,39000 ± 6000 M⁻¹ s⁻¹
TIMP2 N-terminal domain S4P/V6G/I35V/S68N/V71I/T99N,MMP1,"fluorogenic substrate cleavage, inhibitor, enzyme inhibition assay",,apparent,,Ki,9.53 nM
Insulin human,,ELISA,"rat, substantia nigra/ventral tegmental area","intranasal, 20 µg per nostril, 15 min",,concentration,218 ± 73.8 pg/mg tissue
human cathepsin G,S100A9,ELISA,,"70 min, 37 °C",,Kd,> 100 nM
"LN[pY]IDLDLV[dPEG8]LST[pY]ASINFQ (IRS1 1170-1178 and 1219-1228, two pY, dPEG8 linker; two pY, dPEG8 linker; pY = N[C@@H](Cc1ccc(OP(=O)(O)O)cc1)C(=O)O; dPEG8 = dPEG8 linker)","PTPN11 1-525 (Homo sapiens, UniProt Q06124)","DiFMUP dephosphorylation, activator",peptide,,,EC50,354 nM
B2 (MAP7D3 426-876),"KIF5B/KLC2 full length, heterotetramer (Homo sapiens)",TIRF,,no microtubules,"reference: without MAP7D3 ct, higher = more recruitment",recruitment,3 fold
KVAK[pS]PKKAKAW (H1-5 168-178 (Homo sapiens); pS172; pS = N[C@@H](COP(=O)(O)O)C(=O)O),"PIN1 (Homo sapiens, UniProt Q13526)",EXSY NMR,peptide,"1 mM peptide, 25 °C",,exchange rate constant,5.8 s⁻¹
sfGFP-ssrA (Escherichia coli),ClpA/ClpS (Escherichia coli),"SFGFP-ssrA degradation, steady-state kinetics",,together with: Phe-Val dipeptide 10 µM,,KM,167 µM
"UBE2D3 (Homo sapiens, UniProt P61077)",MYCBP2 4378-4640 C4520K/I4392A (Homo sapiens),E2-E3 isopeptide formation,,single turnover,,reduction of isopeptide formation,30 % reduction
B3 (CKS1),"Cdc6 2-29 P8A, pT7 (UniProt P09119)",steady-state kinetics,,,"reference: wild-type peptide, higher = weaker substrate affinity",KM,6 fold
B4 (UGT1A9),COc1cccc(-c2cc(=O)c3ccc(O)cc3o2)c1,steady-state kinetics,,"pH 7.4, 37 °C",,Vmax/Km,5 µL/min/mg
B5 (SFN 1-231),"MAPT PKA phosphorylated S214A/S409A/S416A, pS324, pS356 (UniProt P10636-8)",cross-linking,,,,molecule per partner,2 14-3-3 per Tau and 1 14-3-3 per Tau
PHF1 fragment (Homo sapiens) (sequence not shown),H3C1 fragment,ITC,,,,ΔH,-0.817 ± 0.343 kcal/mol
TDRD3 fragment (Homo sapiens),"histone H3 peptide, symmetric dimethyl R17",fluorescence polarisation,,,reference: aDMA H3R17 peptide,fold weaker affinity,7 fold
SLC27A4 ERx to C-terminus,"RPE65 (Homo sapiens, UniProt Q16518)",HPLC,293T-LC,"4 hours, normalised by RPE65 expression, together with: all-trans-retinol 7 µM","reference: pRK control, higher = stronger inhibition",inhibition of 11-cis-retinol synthesis,50%
"COL4A1 (Homo sapiens, UniProt P02462)","Itga1/Itgb1 whole, on cells (Mus musculus)",MTT,MLEC,"500 nM, 24 h","reference: untreated control, higher = more viable cells",cell viability,34%
S. cerevisiae FACT complex,"HTB1/HTA1 (Saccharomyces cerevisiae, UniProt P02293+P04911)",ITC,,first of two sites,,Kd,340 nM
"CCND1/CDK6 fusion, linker (Homo sapiens)","RB1 1-892 (Homo sapiens, UniProt P06400)",in vitro kinase assay,,,"reference: wild-type Rb, higher = greater reduction",phosphorylation reduction,20 fold
B6,DLAT/PDHX mature 60-mer core (Homo sapiens),SEC,,,,molecule per partner,50.1 ± 0.7
"{Cy5.5″}-TNYLFSPNGPIARAWK(DOTA)-NH2 (peptide; N-terminal Cy5.5, C-terminal DOTA; Cy5.5″ = near-infrared fluorescent dye Cy5.5; DOTA = O=C(O)CN1CCN(CC(=O)O)CCN(CC(=O)*)CCN(CC(=O)O)CC1)","EPHB4 16-539 (Homo sapiens, UniProt P54760)",SPR,peptide,,,koff,0.00187 s⁻¹
"CYCS mature (Equus caballus, UniProt P00004)",sorT mature (Sinorhizobium meliloti),steady-state kinetics,,"pH 8.0, together with: cytochrome as electron acceptor",,sulfite dehydrogenase activity,7.4 U/mg
"RPA1/RPA2/RPA3 heterotrimer, hyperphosphorylated RPA2","NBN (Homo sapiens, UniProt O60934)",co-IP,,,"reference: RPA, higher = weaker interaction",decrease of interaction,67%
"ORAI1 (Homo sapiens, UniProt Q96D31)","STIM1 339-475 (Homo sapiens, UniProt Q13586)","store-independent I_CRAC, whole-cell patch clamp",HEK293,,,current density,14.5 pA/pF
B7 (TIF4631 572-853 K590R),"TIF1 E43R/Q186C/G370C, Alexa488/Alexa546 labels (Saccharomyces cerevisiae, UniProt P10081)","conformation of molecule, smFRET",,,,binding,binds
"RFC1/RFC2/RFC3/RFC4/RFC5, Cy3 on N-terminal S6 tag (Saccharomyces cerevisiae)","POL30, LD655 label on S6 tag (Saccharomyces cerevisiae, UniProt P15873)",single-molecule colocalisation,,together with: PCNA,,tethers with RFC,9 of 14 tethers
human neutrophil elastase,S100A9,ELISA,,"70 min, 37 °C",,Kd,> 100 nM
GAGUUGAGUUGAGUUGAGUUGAGUUGAGUUGAGUUGAGUUGAGUUGAGUUGAGUU (ssRNA; single strand),"mtrB full length assumed T30Q (Bacillus subtilis, UniProt P19466)",filter binding,,together with: L-tryptophan 1 mM,,Kd,200 ± 30 nM
"ndc-80/him-10 truncated, sfGFP-fused (Caenorhabditis elegans)",TUBA1B/TUBB2B taxol-stabilized microtubules,"residence times, single-molecule TIRF microscopy",,30 °C,,koff,0.34 s⁻¹
B8 (TIMP3 24-144),MMP1,"inhibitor, steady-state kinetics",,"1 h, 37 °C, apparent, tight-binding fit",,Ki,0.9 nM
VSIG4 fragment (Homo sapiens),"C3b (Homo sapiens, UniProt P01024)","alternative-pathway lysis of rabbit erythrocytes, inhibitor",serum,12%,,IC50,1600 nM

# A few entries again:
Substance,target or system,test,test system,setting,scale,quantity,result
"RPA1/RPA2/RPA3 heterotrimer, hyperphosphorylated RPA2","NBN (Homo sapiens, UniProt O60934)",co-IP,,,"reference: RPA, higher = weaker interaction",decrease of interaction,67%
S. cerevisiae FACT complex,"HTB1/HTA1 (Saccharomyces cerevisiae, UniProt P02293+P04911)",ITC,,first of two sites,,Kd,340 nM
sfGFP-ssrA (Escherichia coli),ClpA/ClpS (Escherichia coli),"SFGFP-ssrA degradation, steady-state kinetics",,together with: Phe-Val dipeptide 10 µM,,KM,167 µM
GAGUUGAGUUGAGUUGAGUUGAGUUGAGUUGAGUUGAGUUGAGUUGAGUUGAGUU (ssRNA; single strand),"mtrB full length assumed T30Q (Bacillus subtilis, UniProt P19466)",filter binding,,together with: L-tryptophan 1 mM,,Kd,200 ± 30 nM
human neutrophil elastase,S100A9,ELISA,,"70 min, 37 °C",,Kd,> 100 nM
